Assay results of several laboratories.
Each line is one published result; not all experiments were run side by side. Numbers after ± are the reported error.
polA D424A: polA fragment D424A (Escherichia coli)
B1: PPIP5K2 (Homo sapiens, UniProt O43314); chain MSEAPRFFVGPEDTEINPGNYRHFFHHADEDDEEEDDSPPERQIVVGICSMAKKSKSKPMKEILERISLFKYITVVVFEEEVILNEPVENWPLCDCLISFHSKGFPLDKAVAYAKLRNPFVINDLNMQYLIQDRREVYSILQAEGILLPRYAILNRDPNNPKECNLIEGEDHVEVNGEVFQKPFVEKPVSAEDHNVYIYYPTSAGGGSQRLFRKIGSRSSVYSPESNVRKTGSYIYEEFMPTDGTDVKVYTVGPDYAHAEARKSPALDGKVERDSEGKEVRYPVILNAREKLIAWKVCLAFKQTVCGFDLLRANGQSYVCDVNGFSFVKNSMKYYDDCAKILGNIVMRELAPQFHIPWSIPLEAED
B2: protein (Thermotoga neapolitana, UniProt B9K712); chain MKMLYDLAKKRKTVRRFKKEKPPLEDLIYSLKVANEAPSGMNAQPWRFLIVEDEKLKGQIRRVCERSEKTFYENVRGRLKEWLDEKRFTWRKPFLKEAPYLLLVFSEKSAPYSRESVWLAVGYLLLALEEKGLGSVPYTPPDFREVEKLVNTPSELRLEVILPVGYPDDPKPKYPRNEVIVRYNTF
UniProt Q9ZGI2, sequence (whole entry, looked up): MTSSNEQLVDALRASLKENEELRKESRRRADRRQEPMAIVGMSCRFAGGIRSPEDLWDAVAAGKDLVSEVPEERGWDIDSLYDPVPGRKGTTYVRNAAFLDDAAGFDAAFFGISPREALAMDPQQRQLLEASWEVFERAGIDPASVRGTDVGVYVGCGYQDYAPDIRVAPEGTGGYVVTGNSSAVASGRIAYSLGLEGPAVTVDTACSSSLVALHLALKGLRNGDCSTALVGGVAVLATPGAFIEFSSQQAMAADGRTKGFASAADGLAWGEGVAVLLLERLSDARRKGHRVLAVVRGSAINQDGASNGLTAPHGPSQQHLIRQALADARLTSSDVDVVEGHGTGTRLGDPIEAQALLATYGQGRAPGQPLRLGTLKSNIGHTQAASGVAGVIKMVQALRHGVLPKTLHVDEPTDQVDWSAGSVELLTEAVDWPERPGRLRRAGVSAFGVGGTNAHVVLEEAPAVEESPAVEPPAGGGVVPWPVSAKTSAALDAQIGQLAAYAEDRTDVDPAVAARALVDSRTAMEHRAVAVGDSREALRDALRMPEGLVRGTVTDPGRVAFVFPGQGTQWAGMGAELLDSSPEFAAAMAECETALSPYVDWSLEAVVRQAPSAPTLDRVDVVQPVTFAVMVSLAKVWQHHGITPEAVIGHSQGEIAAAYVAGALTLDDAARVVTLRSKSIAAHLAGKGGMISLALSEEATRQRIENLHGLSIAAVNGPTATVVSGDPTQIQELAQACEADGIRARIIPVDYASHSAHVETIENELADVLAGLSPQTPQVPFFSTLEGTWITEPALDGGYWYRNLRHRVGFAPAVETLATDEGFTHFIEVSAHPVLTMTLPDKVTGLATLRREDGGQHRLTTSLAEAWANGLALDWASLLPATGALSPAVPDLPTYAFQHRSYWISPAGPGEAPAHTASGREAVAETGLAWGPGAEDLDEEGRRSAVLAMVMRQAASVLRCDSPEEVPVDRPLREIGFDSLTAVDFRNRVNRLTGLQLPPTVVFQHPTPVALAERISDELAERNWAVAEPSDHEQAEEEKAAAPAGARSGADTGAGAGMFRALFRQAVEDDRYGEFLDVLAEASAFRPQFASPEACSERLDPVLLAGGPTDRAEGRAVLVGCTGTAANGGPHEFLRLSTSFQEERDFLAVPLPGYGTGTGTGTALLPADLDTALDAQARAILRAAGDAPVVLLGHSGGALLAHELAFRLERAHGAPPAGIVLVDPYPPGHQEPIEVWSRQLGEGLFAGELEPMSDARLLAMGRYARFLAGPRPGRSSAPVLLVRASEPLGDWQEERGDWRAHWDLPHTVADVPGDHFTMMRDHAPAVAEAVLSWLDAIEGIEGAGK

B1 (PPIP5K2) — kcat/Km (O=P(O)(O)O[C@@H]1[C@@H](OP(=O)(O)O)[C@@H](OP(=O)(O)O)[C@@H](OP(=O)(O)OP(=O)(O)O)[C@H](OP(=O)(O)O)[C@H]1OP(=O)(O)O; steady-state kinetics): 17000 M⁻¹ s⁻¹
B2 (protein) — kcat (N[C@@H](Cc1ccc(O)c(I)c1)C(=O)O; steady-state kinetics; pH 7.4, 25 °C): 0.0267 ± 0.00167 s⁻¹
enzyme (Streptomyces venezuelae, UniProt Q9ZGI2) — kcat/Km (CC[C@@H](O)[C@H](C)/C=C/C(=O)[C@H](C)C[C@H](C)[C@H](O)[C@@H](C)C(=O)SCCNC(C)=O; steady-state kinetics): 418.3 ± 3.17 M⁻¹ s⁻¹
CCCC[C@H](NC(=O)COCCOCCNC(=O)CN1CCN(CC(=O)O)CCN(CC(=O)O)CC1)C(=O)N[C@H]1CC(=O)NCCCC[C@@H](C(N)=O)NC(=O)[C@H](Cc2c[nH]c3ccccc23)NC(=O)[C@H](CCCNC(=N)N)NC(=O)[C@@H](Cc2ccccc2)NC(=O)[C@H](Cc2c[nH]cn2)NC1=O [copper-64 labelled] — tissue uptake (C57 mice, muscle; intravenous, 0.37 MBq, 24 h): 0.01 ± 0.01 %ID/g
N=C(N)NCCC[C@H](NC(=O)[C@H](CCCNC(=N)N)NC(=O)[C@H](CCCNC(=N)N)NC(=O)[C@H](CCCNC(=N)N)NC(=O)[C@H](CCCNC(=N)N)NC(=O)[C@H](CCCNC(=N)N)NC(=O)[C@H](CCCNC(=N)N)NC(=O)[C@H](CCCNC(=N)N)NC(=O)CN(CCN(CCN(CC(=O)O)CC(=O)O)CC(=O)O)CC(=O)O)C(=O)O — cellular uptake (NIH/3T3 cells; refers to: Gd; 0.10 mM, 4 h; reference: reference compounds): increased
CN1C(=O)[C@@H](Cc2ccc(O)cc2)NC(=O)CNC(=O)[C@H](Cc2ccc3ccccc3c2)NC(=O)[C@H](CCCNC(=N)N)NC(=O)[C@H]1CCCNC(=O)c1ccc(CNC(=O)CN2CCN(CC(=O)O)CCN(CC(=O)O)CCN(CC(=O)O)CC2)cc1 [gallium-68 labelled] — absorbed dose coefficient (extrapolated to adult male; C57BL/6 mice, adrenals): 0.0147 mGy/MBq
CCTCTTCCCTCACCTCTTCTTGACCTCATTCGTACCCATTGACCTTCGCAACCACCTGCGAAGGTCAATGGGTACGAATGAGGT (hairpin DNA; hairpin, 5' overhang, dG-C8-FABP 22, 3' ddT) — Kd (polA D424A; SPR; binary): 0.27 ± 0.02 nM
GACAUGGUCCGGUAGUUCAGUUGGUUAGAAUGCCUGCCUGUCACGCAGGAGGUCGCGGGUUCGAGUCCCGUCCGGACCG (tRNA (Bacillus subtilis); 5'-GMPS, tRNA fold) — binding free energy loss (PRORP1 77-572 Y133A (Arabidopsis thaliana, UniProt Q66GI4); fluorescence anisotropy; folded RNA; NaCl 1 M; reference: wild-type target): 1.6 kcal/mol
CCCC[C@H](NC(=O)CNC(=O)CNC(=O)CN1CCN(CC(=O)O)CCN(CC(=O)O)CCN(CC(=O)O)CC1)C(=O)N[C@H]1CC(=O)NCCCC[C@@H](C(N)=O)NC(=O)[C@H](Cc2c[nH]c3ccccc23)NC(=O)[C@H](CCCNC(=N)N)NC(=O)[C@@H](Cc2ccccc2)NC(=O)[C@H](Cc2c[nH]cn2)NC1=O [lutetium-177 labelled] — tissue uptake (C57 mouse, female, liver; intravenous, 0.037 MBq, 0.5 h): 1.61 ± 0.25 %ID/g
CCTCTTCCCTCACCTCTTCTTGACCTCATTCGTACCCATTGACCTTCGCAACCACCTGCGAAGGTCAATGGGTACGAATGAGGT (hairpin DNA; hairpin, 5' overhang, 3' ddT) — Kd (polA D424A; SPR; binary): 1.3 ± 0.3 nM
CCCC[C@H](NC(=O)CNC(=O)CNC(=O)CN1CCN(CC(=O)O)CCN(CC(=O)O)CC1)C(=O)N[C@H]1CC(=O)NCCCC[C@@H](C(N)=O)NC(=O)[C@H](Cc2c[nH]c3ccccc23)NC(=O)[C@H](CCCNC(=N)N)NC(=O)[C@@H](Cc2ccccc2)NC(=O)[C@H](Cc2c[nH]cn2)NC1=O [technetium-99m labelled] — tissue uptake (C57 mouse, tumor; iv, 0.037 MBq, 0.5 h): 16.1 ± 4.47 %ID/g
